Measured values from different studies.
Lines come from different studies, so protocols differ. ± marks the error that the study gave.
SLCO1B3: Solute carrier organic anion transporter family member 1B3 (SLCO1B3, Homo sapiens, UniProt Q9NPD5)
Chain of UniProt Q9NPD5 (whole entry, looked up): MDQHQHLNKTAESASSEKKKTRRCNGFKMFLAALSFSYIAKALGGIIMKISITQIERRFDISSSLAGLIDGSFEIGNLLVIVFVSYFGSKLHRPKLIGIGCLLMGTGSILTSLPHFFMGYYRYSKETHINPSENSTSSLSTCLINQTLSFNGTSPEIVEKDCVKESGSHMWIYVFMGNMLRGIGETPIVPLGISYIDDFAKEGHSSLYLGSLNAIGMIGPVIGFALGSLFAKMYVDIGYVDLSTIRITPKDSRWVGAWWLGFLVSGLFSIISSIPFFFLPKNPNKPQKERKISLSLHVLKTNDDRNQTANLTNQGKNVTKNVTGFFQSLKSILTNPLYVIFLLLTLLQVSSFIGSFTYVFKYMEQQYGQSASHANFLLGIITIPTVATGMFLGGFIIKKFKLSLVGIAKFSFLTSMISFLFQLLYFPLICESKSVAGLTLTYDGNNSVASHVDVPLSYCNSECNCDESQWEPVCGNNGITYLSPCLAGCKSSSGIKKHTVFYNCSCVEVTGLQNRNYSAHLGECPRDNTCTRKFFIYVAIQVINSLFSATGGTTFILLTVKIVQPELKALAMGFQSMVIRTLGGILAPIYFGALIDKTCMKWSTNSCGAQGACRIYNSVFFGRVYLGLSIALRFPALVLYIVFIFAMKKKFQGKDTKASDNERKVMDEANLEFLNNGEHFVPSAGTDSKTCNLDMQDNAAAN
Tumor necrosis factor receptor superfamily member 9/Nectin-4: Tumor necrosis factor receptor superfamily member 9/Nectin-4 (Homo sapiens, UniProt Q07011+Q96NY8)
Chain of UniProt Q07011 (whole entry, looked up): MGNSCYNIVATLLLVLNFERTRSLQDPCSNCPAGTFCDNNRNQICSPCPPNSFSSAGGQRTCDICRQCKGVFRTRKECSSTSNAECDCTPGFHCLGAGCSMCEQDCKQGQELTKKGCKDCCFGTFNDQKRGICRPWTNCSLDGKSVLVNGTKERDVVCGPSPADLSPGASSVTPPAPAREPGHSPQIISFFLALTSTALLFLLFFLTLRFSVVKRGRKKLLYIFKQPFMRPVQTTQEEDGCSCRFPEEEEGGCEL
Chain of UniProt Q96NY8 (whole entry, looked up): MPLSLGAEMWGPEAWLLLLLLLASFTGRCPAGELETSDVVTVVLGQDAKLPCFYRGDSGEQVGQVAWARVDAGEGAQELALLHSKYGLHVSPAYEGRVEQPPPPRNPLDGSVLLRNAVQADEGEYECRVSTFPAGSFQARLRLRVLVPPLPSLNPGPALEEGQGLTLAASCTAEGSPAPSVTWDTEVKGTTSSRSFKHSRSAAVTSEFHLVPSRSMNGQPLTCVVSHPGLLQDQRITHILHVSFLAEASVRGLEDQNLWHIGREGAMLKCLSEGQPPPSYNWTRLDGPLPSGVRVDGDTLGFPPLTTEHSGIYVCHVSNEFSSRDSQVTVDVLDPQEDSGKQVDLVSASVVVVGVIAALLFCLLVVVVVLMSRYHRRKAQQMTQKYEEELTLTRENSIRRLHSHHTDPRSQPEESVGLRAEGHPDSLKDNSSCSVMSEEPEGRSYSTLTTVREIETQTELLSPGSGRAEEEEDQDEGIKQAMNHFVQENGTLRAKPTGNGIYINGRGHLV
Chain of UniProt P33261 (whole entry, looked up): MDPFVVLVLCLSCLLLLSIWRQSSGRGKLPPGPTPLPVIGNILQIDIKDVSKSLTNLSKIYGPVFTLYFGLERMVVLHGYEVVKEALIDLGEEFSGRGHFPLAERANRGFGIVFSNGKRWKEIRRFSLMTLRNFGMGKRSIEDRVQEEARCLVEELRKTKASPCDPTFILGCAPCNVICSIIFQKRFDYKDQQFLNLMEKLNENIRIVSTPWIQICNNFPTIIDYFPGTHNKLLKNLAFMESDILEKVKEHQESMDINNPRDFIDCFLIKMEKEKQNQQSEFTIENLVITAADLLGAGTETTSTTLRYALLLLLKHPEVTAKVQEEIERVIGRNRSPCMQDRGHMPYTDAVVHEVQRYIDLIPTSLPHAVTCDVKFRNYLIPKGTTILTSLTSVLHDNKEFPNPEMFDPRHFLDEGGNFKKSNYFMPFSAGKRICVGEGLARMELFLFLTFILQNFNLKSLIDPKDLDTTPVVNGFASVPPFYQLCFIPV
Chain of UniProt Q9UNQ0 (whole entry, looked up): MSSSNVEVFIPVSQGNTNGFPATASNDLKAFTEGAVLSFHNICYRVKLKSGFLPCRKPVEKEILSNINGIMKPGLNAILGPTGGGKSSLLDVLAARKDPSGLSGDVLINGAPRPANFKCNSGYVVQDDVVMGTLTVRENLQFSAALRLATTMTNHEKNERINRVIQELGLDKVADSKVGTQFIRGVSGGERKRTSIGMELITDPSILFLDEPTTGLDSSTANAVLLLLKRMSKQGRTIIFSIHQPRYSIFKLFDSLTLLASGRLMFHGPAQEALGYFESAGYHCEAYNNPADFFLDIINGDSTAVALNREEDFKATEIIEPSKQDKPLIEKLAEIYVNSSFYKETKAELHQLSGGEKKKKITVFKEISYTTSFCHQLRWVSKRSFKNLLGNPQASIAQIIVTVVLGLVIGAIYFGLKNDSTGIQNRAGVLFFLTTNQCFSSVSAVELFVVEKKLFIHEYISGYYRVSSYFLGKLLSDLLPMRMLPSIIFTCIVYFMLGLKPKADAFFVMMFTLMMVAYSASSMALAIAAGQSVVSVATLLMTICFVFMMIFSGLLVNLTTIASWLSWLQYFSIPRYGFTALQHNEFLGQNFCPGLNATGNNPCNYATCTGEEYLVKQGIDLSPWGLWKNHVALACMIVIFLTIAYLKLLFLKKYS
Chain of UniProt Q05421 (whole entry, looked up): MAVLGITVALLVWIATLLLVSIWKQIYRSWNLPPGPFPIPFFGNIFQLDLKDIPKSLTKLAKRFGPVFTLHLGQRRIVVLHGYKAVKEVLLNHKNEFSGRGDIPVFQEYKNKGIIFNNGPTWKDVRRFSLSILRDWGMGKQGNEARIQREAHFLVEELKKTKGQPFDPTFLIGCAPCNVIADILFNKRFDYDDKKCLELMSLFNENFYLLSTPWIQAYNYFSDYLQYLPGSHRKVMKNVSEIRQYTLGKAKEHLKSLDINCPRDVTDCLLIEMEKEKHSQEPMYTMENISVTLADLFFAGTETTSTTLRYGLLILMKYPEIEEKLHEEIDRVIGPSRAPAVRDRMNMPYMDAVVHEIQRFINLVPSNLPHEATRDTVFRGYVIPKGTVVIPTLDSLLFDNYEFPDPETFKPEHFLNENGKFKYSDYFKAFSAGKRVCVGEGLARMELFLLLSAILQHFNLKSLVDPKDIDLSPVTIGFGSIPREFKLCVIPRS
Chain of UniProt P08183 (whole entry, looked up): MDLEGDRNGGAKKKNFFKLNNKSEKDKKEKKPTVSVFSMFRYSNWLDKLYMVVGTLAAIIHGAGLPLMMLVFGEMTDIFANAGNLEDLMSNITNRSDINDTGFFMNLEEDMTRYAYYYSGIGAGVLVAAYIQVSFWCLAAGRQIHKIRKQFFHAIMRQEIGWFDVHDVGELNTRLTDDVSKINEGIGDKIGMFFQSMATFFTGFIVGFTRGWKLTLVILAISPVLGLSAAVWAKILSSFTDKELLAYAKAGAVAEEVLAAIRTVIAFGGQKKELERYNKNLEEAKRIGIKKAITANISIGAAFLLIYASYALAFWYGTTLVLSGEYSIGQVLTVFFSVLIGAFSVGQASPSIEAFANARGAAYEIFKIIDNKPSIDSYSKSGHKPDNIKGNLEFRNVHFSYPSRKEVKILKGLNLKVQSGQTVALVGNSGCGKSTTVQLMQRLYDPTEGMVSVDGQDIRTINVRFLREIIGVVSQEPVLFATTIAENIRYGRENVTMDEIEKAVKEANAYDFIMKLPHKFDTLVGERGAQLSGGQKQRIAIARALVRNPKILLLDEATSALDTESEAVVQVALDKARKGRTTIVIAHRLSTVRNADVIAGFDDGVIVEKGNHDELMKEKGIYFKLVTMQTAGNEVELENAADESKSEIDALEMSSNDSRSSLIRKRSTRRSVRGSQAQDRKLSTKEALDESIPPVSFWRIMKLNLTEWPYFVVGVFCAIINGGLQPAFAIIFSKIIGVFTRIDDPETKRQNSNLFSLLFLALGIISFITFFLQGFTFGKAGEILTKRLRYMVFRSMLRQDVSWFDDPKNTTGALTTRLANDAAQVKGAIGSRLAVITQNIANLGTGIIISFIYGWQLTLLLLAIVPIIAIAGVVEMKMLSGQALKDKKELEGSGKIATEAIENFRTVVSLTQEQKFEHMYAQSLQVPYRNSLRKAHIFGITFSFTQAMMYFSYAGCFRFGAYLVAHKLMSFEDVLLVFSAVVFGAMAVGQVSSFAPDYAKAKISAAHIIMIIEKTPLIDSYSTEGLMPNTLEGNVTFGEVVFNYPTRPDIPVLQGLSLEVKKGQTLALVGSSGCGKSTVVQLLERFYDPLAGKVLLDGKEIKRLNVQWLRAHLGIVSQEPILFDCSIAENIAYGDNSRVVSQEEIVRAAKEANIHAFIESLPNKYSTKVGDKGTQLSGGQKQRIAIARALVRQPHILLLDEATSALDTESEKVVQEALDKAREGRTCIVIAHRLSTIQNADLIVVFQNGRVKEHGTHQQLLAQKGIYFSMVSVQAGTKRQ
Chain of UniProt Q86VL8 (whole entry, looked up): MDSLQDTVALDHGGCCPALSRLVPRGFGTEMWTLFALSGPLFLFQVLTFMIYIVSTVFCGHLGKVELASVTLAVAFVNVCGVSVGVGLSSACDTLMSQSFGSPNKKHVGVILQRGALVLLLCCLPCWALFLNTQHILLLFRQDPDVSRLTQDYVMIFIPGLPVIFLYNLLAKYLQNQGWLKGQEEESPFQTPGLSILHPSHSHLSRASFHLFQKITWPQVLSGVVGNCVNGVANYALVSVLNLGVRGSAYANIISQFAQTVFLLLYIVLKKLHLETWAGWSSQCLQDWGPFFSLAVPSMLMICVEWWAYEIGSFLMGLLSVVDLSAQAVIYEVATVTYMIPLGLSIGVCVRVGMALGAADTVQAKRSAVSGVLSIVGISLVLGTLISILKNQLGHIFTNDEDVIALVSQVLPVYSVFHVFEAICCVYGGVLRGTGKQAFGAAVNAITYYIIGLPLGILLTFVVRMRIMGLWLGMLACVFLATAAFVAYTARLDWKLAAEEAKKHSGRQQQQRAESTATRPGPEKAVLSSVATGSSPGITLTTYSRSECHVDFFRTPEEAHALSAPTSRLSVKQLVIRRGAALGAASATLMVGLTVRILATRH

SMILES	tested on	assay	system	conditions	scale	quantity	value
Cc1oncc1C(=O)Nc1ccc(C(F)(F)F)cc1	SLCO1B3	transport, inhibitor	transiently transfected cells	100 µM, 10 (unit not given), together with: CCK-8		inhibition	94.5%
O=S1OCC2C(CO1)C1(Cl)C(Cl)=C(Cl)C2(Cl)C1(Cl)Cl (centres unmarked)	Broad substrate specificity ATP-binding cassette transporter ABCG2 (ABCG2, Homo sapiens, UniProt Q9UNQ0)	inhibition, inhibitor		0.03 to 100 µM, together with: sulfasalazine 10 µM		BCRP ATPase activity	inhibited
CCCC[C@@H]1NC(=O)[C@H](Cc2ccc(O)cc2)NC(=O)[C@@H]2CCCN2C(=O)[C@H](CCC(=O)O)NC(=O)[C@H](C)NC(=O)[C@H](Cc2ccccc2)NC(=O)[C@@H]2CSCCC(=O)N3CN(CN(C3)C(=O)CCSC[C@H](NC(C)=O)C(=O)N[C@@H](CC(C)(C)C)C(=O)N3CCC[C@H]3C(=O)N[C@@H](CCC(=O)O)C(=O)N[C@H](CCCCNC(=O)CCc3cn(CCOCCOCCOCCOCCOCCC(=O)N[C@H]4CSCCC(=O)N5CN6CN(C5)C(=O)CCSC[C@H](NC(=O)[C@@H](CC(=O)O)NC(=O)[C@H](Cc5cccc7ccccc57)NC(=O)[C@@H]5CCCN5C4=O)C(=O)N[C@@H](CCSC)C(=O)N[C@@H](CCCCNC(=N)N)C(=O)N[C@@H](CC(=O)O)C(=O)N[C@@H](Cc4c[nH]c5ccccc45)C(=O)N[C@@H](CO)C(=O)N[C@@H]([C@@H](C)O)C(=O)N4CCC[C@H]4C(=O)N4C[C@H](O)C[C@H]4C(=O)N[C@@H](Cc4c[nH]c5ccccc45)C(=O)N[C@H](C(N)=O)CSCCC6=O)nn3)C(=O)N3CCC[C@H]3C(=O)N[C@@H](Cc3ccc(O)cc3)C(=O)N2)C(=O)CCSC[C@@H](C(N)=O)NC1=O	Tumor necrosis factor receptor superfamily member 9/Nectin-4	reporter gene, agonist, luciferase reporter	CD137 Jurkat reporter with HT-1376	6 h, geometric mean	baseline: wells without compound	Emax	2 fold
C[C@H]1CN(c2n[nH]c3nc(N[C@H]4CC[C@H](NS(=O)(=O)CCC(F)(F)F)CC4)ncc23)CCO1	Mitogen-activated protein kinase 14 (MAPK14, Homo sapiens, UniProt Q16539)	competitor, Kinobeads competition	HEK293, K562, placenta extract			Hill slope	0.97
CC(C)CC(=O)OC[C@H]1O[C@@](C#N)(c2ccc3c(N)ncnn23)[C@H](O)[C@@H]1O	ATP-dependent translocase ABCB1 (ABCB1, Homo sapiens, UniProt P08183)		Caco-2	9 µM, together with: zosuquidar 25 µM		Papp B to A	0.535 ×10⁻⁶ cm/s
Cc1c(COC(=O)[C@@H]2[C@H](/C=C(\Cl)C(F)(F)F)C2(C)C)cccc1-c1ccccc1 (racemic)	human CYP2C8	IVIVE from expressed enzymes	human, liver, in vivo scaled	0.1 µM, age-specific		enzyme contribution to CLint	6.91%
Nc1ccc([O-])c(=O)cc1.Nc1ccc([O-])c(=O)cc1.Nc1ccc([O-])c(=O)cc1.[Bi+3]	Bi(III)	electronic spectroscopy				log Ka	18 ± 0.39
C=CC1CO1 (centres unmarked)	Cytochrome P450 2E1 (Cyp2e1, Mus musculus, UniProt Q05421)	4-nitrophenol oxidation, inhibitor	B6C3F1 mouse, liver microsomes	binding to substrate-bound enzyme		Ki	59 µM
CC(C)(C)NCc1ccc(Nc2ccnc3cc(Cl)ccc23)cc1O	Vero-E6	CellTiter-Glo ATP		72 h, second round 5-point	baseline: DMSO 0%, hyamine -100%, more negative, more toxic	maximum response	-19.5%
CCCC[C@@H]1NC(=O)[C@H](Cc2ccc(O)cc2)NC(=O)[C@@H](C)N(C)C(=O)[C@H](CC(=O)O)NC(=O)[C@H](C)NC(=O)[C@H](Cc2ccccc2)NC(=O)[C@@H]2CSCCC(=O)N3CN(CN(C3)C(=O)CCSC[C@H](NC(C)=O)C(=O)N[C@@H](CC(C)(C)C)C(=O)N3CCC[C@H]3C(=O)N[C@@H](CCC(=O)O)C(=O)N[C@H](CCCCNC(=O)CCc3cn(CCOCCOCCOCCOCCOCCC(=O)N[C@H]4CSCCC(=O)N5CN6CN(C5)C(=O)CCSC[C@H](NC(=O)[C@@H](CC(=O)O)NC(=O)[C@H](Cc5cccc7ccccc57)NC(=O)[C@@H]5CCCN5C4=O)C(=O)N[C@@H](CCSC)C(=O)N[C@@H](CCCCNC(=N)N)C(=O)N[C@@H](CC(=O)O)C(=O)N[C@@H](Cc4c[nH]c5ccccc45)C(=O)N[C@@H](CO)C(=O)N[C@@H]([C@@H](C)O)C(=O)N4CCC[C@H]4C(=O)N4C[C@H](O)C[C@H]4C(=O)N[C@@H](Cc4c[nH]c5ccccc45)C(=O)N[C@H](C(N)=O)CSCCC6=O)nn3)C(=O)N3CCC[C@H]3C(=O)N[C@@H](Cc3ccc(O)cc3)C(=O)N2)C(=O)CCSC[C@@H](C(N)=O)NC1=O	Tumor necrosis factor receptor superfamily member 9/Nectin-4	reporter gene, agonist, luciferase reporter	CD137 Jurkat reporter with HT-1376	6 h, geometric mean	baseline: wells without compound	Emax	42 fold
O=C(Nc1cnccc1Cl)N1CCN(Cc2ccc3c(c2)OC(F)(F)O3)CC1	Cytochrome P450 2C19 (CYP2C19, Homo sapiens, UniProt P33261)	enzyme activity, inhibitor		10 µM, together with: 3-cyano-7-ethoxycoumarin substrate		inhibition	21%
O=C1CCC(N2C(=O)c3ccccc3C2=O)C(=O)N1 (centres unmarked)	Multidrug and toxin extrusion protein 2 (SLC47A2, Homo sapiens, UniProt Q86VL8)	transport, inhibitor	transiently transfected cells	100 µM, 10 (unit not given), together with: thiamine		inhibition	4%
CC1(C)[C@H](C(=O)OCc2cccc(Oc3ccccc3)c2)[C@@H]1C=C(Cl)Cl	CES2 human cytosolic			0.1 µM, age 6 months		enzyme contribution	5.83%
CCN(CC)CCCC(C)Nc1ccnc2cc(Cl)ccc12 (centres unmarked)	SLCO1B3	transport, inhibitor	transiently transfected cells	100 µM, 10 (unit not given), together with: CCK-8		inhibition	57.3%
COc1ccc(Nc2cc(C(=O)NCCCN3CCN(c4ccccc4F)CC3)c3ccccc3n2)c(OC)c1	Vero-E6	CellTiter-Glo ATP		72 h, second round 5-point	baseline: DMSO 0%, hyamine -100%, more negative, more toxic	maximum response	-29.6%
CCCC[C@@H]1NC(=O)[C@H](Cc2ccc(O)cc2)NC(=O)[C@@H]2CCCN2C(=O)[C@H](CC(=O)O)NC(=O)[C@H](C)NC(=O)[C@H](Cc2ccccc2)NC(=O)[C@@H]2CSCCC(=O)N3CN(CN(C3)C(=O)CCSCCC(=O)N[C@@H](CC(C)(C)C)C(=O)N3CCC[C@H]3C(=O)N[C@@H](CCC(=O)O)C(=O)N[C@H](CCCCNC(=O)CCc3cn(CCOCCOCCOCCOCCOCCC(=O)N[C@H]4CSCCC(=O)N5CN6CN(C5)C(=O)CCSC[C@H](NC(=O)[C@@H](CC(=O)O)NC(=O)[C@H](Cc5cccc7ccccc57)NC(=O)[C@@H]5CCCN5C4=O)C(=O)N[C@@H](CCSC)C(=O)N[C@@H](CCCCNC(=N)N)C(=O)N[C@@H](CC(=O)O)C(=O)N[C@@H](Cc4c[nH]c5ccccc45)C(=O)N[C@@H](CO)C(=O)N[C@@H]([C@@H](C)O)C(=O)N4CCC[C@H]4C(=O)N4C[C@H](O)C[C@H]4C(=O)N[C@@H](Cc4c[nH]c5ccccc45)C(=O)N[C@H](C(N)=O)CSCCC6=O)nn3)C(=O)N3CCC[C@H]3C(=O)N[C@@H](Cc3ccc(O)cc3)C(=O)N2)C(=O)CCSCCNC1=O	Tumor necrosis factor receptor superfamily member 9/Nectin-4	reporter gene, agonist, luciferase reporter	CD137 Jurkat reporter with HT-1376	6 h, geometric mean	baseline: wells without compound	Emax	34 fold
CN(C)C(=O)COC(=O)Cc1ccc(OC(=O)c2ccc(NC(=N)N)cc2)cc1	SLCO1B3	transport, inhibitor	transiently transfected cells	100 µM, 10 (unit not given), together with: CCK-8		inhibition	83.4%

For quick reference, copied from above:
SMILES	tested on	assay	system	conditions	scale	quantity	value
CC1(C)[C@H](C(=O)OCc2cccc(Oc3ccccc3)c2)[C@@H]1C=C(Cl)Cl	CES2 human cytosolic			0.1 µM, age 6 months		enzyme contribution	5.83%
COc1ccc(Nc2cc(C(=O)NCCCN3CCN(c4ccccc4F)CC3)c3ccccc3n2)c(OC)c1	Vero-E6	CellTiter-Glo ATP		72 h, second round 5-point	baseline: DMSO 0%, hyamine -100%, more negative, more toxic	maximum response	-29.6%
